{"data": "Measurements pooled from the literature", "note": "Lines come from different studies, so protocols differ. ± gives the spread as reported."}
{"Compound": "CC(=O)c1c(C)c2cnc(Nc3ccc(C4CCN(CCS(C)(=O)=O)CC4)cn3)nc2n(C2CCCC2)c1=O", "system": "beagle dog", "measurement": "maximum tolerated dose", "result": "≥ 180 mg/kg"}
{"Compound": "C[C@@H]1NC(=O)[C@H](CCCCNC(=O)CO/N=C/C(=O)NCCCC[C@@H]2NC(=O)[C@@H](Cc3ccccc3)NC(=O)[C@H](CC(=O)O)NC(=O)CNC(=O)[C@H](CCCNC(=N)N)NC2=O)NC(=O)CNC(=O)[C@@H]2CCCN2C(=O)[C@H](CCCCNC(=O)CO/N=C/C(=O)NCCCC[C@@H]2NC(=O)[C@@H](Cc3ccccc3)NC(=O)[C@H](CC(=O)O)NC(=O)CNC(=O)[C@H](CCCNC(=N)N)NC2=O)NC(=O)[C@H](CCCCNC(=O)CCNC(=O)CCNC(=O)CCNC(=O)[C@H](CCCCN)NC(=O)[C@H](Cc2ccccc2)NC(=O)CNC(=O)CN2CCCNCCNCCCNCC2)NC(=O)[C@H](CCCCNC(=O)CO/N=C/C(=O)NCCCC[C@@H]2NC(=O)[C@@H](Cc3ccccc3)NC(=O)[C@H](CC(=O)O)NC(=O)CNC(=O)[C@H](CCCNC(=N)N)NC2=O)NC(=O)CNC(=O)[C@@H]2CCCN2C(=O)[C@H](CCCCNC(=O)CO/N=C/C(=O)NCCCC[C@@H]2NC(=O)[C@@H](Cc3ccccc3)NC(=O)[C@H](CC(=O)O)NC(=O)CNC(=O)[C@H](CCCNC(=N)N)NC2=O)NC1=O [copper-64 labelled]", "system": "normal mice, liver", "setting": "intravenous, 0.74 MBq, 24 h post-injection", "measurement": "tissue uptake", "result": "23.3 ± 0.56 %ID/g"}
{"Compound": "CC(=O)NCC(=O)NCC(=O)N[C@H](C(=O)N[C@@H](Cc1ccc(O)cc1)C(=O)N[C@@H](CO)C(=O)N[C@H]1CSSC[C@@H](C(=O)N[C@@H](CCCNC(=N)N)C(=O)N2CCC[C@H]2C(=O)N[C@@H](CCC(N)=O)C(=O)N[C@@H](CCCNC(=N)N)C(=O)NCC(=O)NCCC(=O)N[C@@H](CCCCNC(=O)CN(CC(=O)NCCCC[C@H](NC(=O)CCNC(=O)CNC(=O)[C@H](CCCNC(=N)N)NC(=O)[C@H](CCC(N)=O)NC(=O)[C@@H]2CCCN2C(=O)[C@H](CCCNC(=N)N)NC(=O)[C@@H]2CSSC[C@H](NC(=O)[C@H](CO)NC(=O)[C@H](Cc3ccc(O)cc3)NC(=O)[C@@H](NC(=O)CNC(=O)CNC(C)=O)[C@@H](C)O)C(=O)N[C@@H](Cc3c[nH]cn3)C(=O)N[C@@H](Cc3ccccc3)C(=O)NCC(=O)N[C@@H](C)C(=O)N[C@@H](CC(C)C)C(=O)N[C@@H]([C@@H](C)O)C(=O)N[C@@H](Cc3c[nH]c4ccccc34)C(=O)N[C@@H](C(C)C)C(=O)N2)C(N)=O)C(=O)CCN)C(N)=O)NC(=O)[C@H](C(C)C)NC(=O)[C@H](Cc2c[nH]c3ccccc23)NC(=O)[C@H]([C@@H](C)O)NC(=O)[C@H](CC(C)C)NC(=O)[C@H](C)NC(=O)CNC(=O)[C@H](Cc2ccccc2)NC(=O)[C@H](Cc2c[nH]cn2)NC1=O)[C@@H](C)O", "assay": "MSD immunoassay", "system": "BALB/c mice, healthy female, serum", "setting": "subcutaneous, 0.08 mg/kg, 96 h, LLOQ 2.0 ng/mL", "measurement": "serum concentration", "result": "not detected"}
{"Compound": "C/C(=N\\C#N)N(C)Cc1ccc(Cl)nc1", "system": "test soil", "setting": "0.12 mg/kg nominal, 28 days", "measurement": "measured soil concentration", "result": "0.02 mg/kg dry soil"}
{"Compound": "COc1cc2c(Oc3ccc4[nH]c(C)cc4c3F)ccnc2cc1OCC1(N)CC1", "system": "paediatric recurrent refractory sarcoma", "setting": "8 mg/kg", "measurement": "grade 3 Leukopenia", "result": "0%"}
{"Compound": "CN1CCN(S(=O)(=O)c2cc([N+](=O)[O-])ccc2N(CCOS(C)(=O)=O)CCOS(C)(=O)=O)CC1", "system": "naive NOD/SCID mice, pooled blood", "setting": "intraperitoneal, 25 mg/kg, week 4", "measurement": "total protein", "result": "59 g/L"}
{"Compound": "N#Cc1ccc(COc2cccc(C(=O)Nc3ccc4c(c3)B(O)OC4)c2)cc1", "assay": "PAMPA", "system": "pre-coated trilayer membrane", "setting": "200 µM, 5 h, pH 7.4, acceptor plate, PBS", "measurement": "acceptor concentration", "result": "0.35 ± 0.06 µM"}
{"Compound": "COc1ncccc1-c1cnn2ccc(N3CCN(C(=O)OC(C)C)CC3)nc12", "system": "rat, CCI cold allodynia model, plasma", "setting": "oral, 1 mg/kg, 240 min", "measurement": "free drug concentration", "result": "2.6 nM"}
{"Compound": "CCNCCCNC/C=C\\CNCCCNCC", "system": "human, advanced solid tumours", "setting": "intravenous, dose not given", "how to read": "relative to: patients", "measurement": "drug-related TEAE, investigations", "result": "8.7%"}
{"Compound": "CC(C)c1nc(N(C)S(C)(=O)=O)nc(-c2ccc(F)cc2)c1/C=C/[C@@H](O)C[C@@H](O)CC(=O)O", "system": "healthy human subjects", "setting": "oral, dose not given, study CL-0537 safety set", "measurement": "incidence of Diarrhea", "result": "0%"}
{"Compound": "Cn1nc(NS(C)(=O)=O)c2c(Cl)ccc(-n3c([C@H](Cc4cc(F)cc(F)c4)NC(=O)Cn4nc(C(F)F)c5c4C(F)(F)[C@@H]4C[C@H]54)nc4nc(OCCC(F)(F)F)ccc4c3=O)c21", "assay": "item: blood triglycerides increased", "system": "human", "setting": "200 mg, powder in bottle", "measurement": "drug-related adverse events", "result": "17%"}
{"Compound": "Clc1cc2c(cc1Cl)Oc1c(ccc(Cl)c1Cl)O2", "assay": "ultrafiltration", "system": "cow milk whey", "setting": "200 nM nominal in whole milk", "measurement": "dose fraction in permeate", "result": "16%"}
{"Compound": "Cc1cc(C)nc(Nc2ncc(C(=O)NCCc3c(C)[nH]c4ccccc34)cn2)c1", "system": "beagle dog", "measurement": "oral bioavailability", "result": "30%"}
{"Compound": "CN(C(=O)n1cnc(-c2ccc[n+]([O-])c2)c1)C1CCCCC1", "system": "Wistar rat, midbrain", "setting": "oral, 10 mg/kg/day, 24 h, repeated 5 days", "measurement": "concentration", "result": "12.9 ± 1.5 ng/g"}
{"note": "Some of these lines once more:"}
{"Compound": "C/C(=N\\C#N)N(C)Cc1ccc(Cl)nc1", "system": "test soil", "setting": "0.12 mg/kg nominal, 28 days", "measurement": "measured soil concentration", "result": "0.02 mg/kg dry soil"}
